Results from different studies.
Every numbered part comes from another study and shows a few of its results, in no order.

Set 1 — technique: RNA Bind-n-Seq; molecule type: RNA; medium: in vitro; tested at: not given; reference: input RNA pool; reading: higher = stronger binding
Target: RING finger protein unkempt homolog, zinc fingers 1-6, GST-SBP tag (UNK, Homo sapiens, UniProt Q9C0B0, residues 30-357)
UniProt Q9C0B0, sequence (30-357, looked up): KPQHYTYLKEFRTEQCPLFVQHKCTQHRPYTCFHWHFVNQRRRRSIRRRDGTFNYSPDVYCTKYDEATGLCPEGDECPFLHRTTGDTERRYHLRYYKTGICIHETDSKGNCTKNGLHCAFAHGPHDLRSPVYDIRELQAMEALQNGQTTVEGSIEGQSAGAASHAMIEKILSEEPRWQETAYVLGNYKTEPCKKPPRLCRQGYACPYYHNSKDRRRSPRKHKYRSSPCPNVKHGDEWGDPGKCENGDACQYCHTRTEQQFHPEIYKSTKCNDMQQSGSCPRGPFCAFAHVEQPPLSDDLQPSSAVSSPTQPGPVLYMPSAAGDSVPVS
Setting: RNA with constant flanks, human-mouse chimeric sites, ends assumed
Constant ends, left off below: GGGAGUUCUACAGUCCGACGAUC … CAACAGAGGAUUGAGCAUCA
Oligonucleotide	bound/input enrichment [ratio]
UCUUUAAAAAAAAAAUUACCUUUUCUGACAGUGCUUUCCCUCCCAUAGAUCCACGUUCAAGCUCAAAGGCCAAAACUUUUGCACGGAUCUGAUGAUGCUGAUGAAGAAAGAUUUCUGAGA	0.531
AAUGUGGAGUUGAGUUCCUUGGCCCGGCUUCCCAGCUUGAAUAAACUCCGGAAGUUGGAACUUAGUGAUAAUAUAAUUUCUGGAGGCUUGGAAGUCCUGGCAGAGAAAUGUCCAAAUCUU	5.13
AGCACAACCCCAGCAAAGCUAAGAAAUCCUUGCACAAGUGAACAAAACUGCACCAGCCCAUUUAGCUACAAAAAUGUGCUUAGUCUUACUGACAGAGGAGAGUUUUUUAAUGAACUUGUU	1.26
AACUUCGUGCAUCGGUUUCCCUUUGUAGCUGUUUCAAUUGGCUUUGCUGUGAAUAAAGAGAUGGAGUUUGGAAUUGUGUACAGCUGUGUGGAAGAUAAGAUGUACACCGGCAGGAAAGGG	0.461
UAAAUUAGGGCUGCCGUUUUCUGUUUCUCCCUGGGCUGCGGAAAGCCAGGCGGUUUUAUCUAGCUUAAACCAGGCUGCUGGUGUUCCCUCUUUUUUUCCACGAGGGUGUUUUUGGCUGCA	0.85
GAAACUAUUCCUAAAGAGGAGAGAGCUGAAAAGGAAGCUCGGAGAUCAUCUCUUGAGAAACAUAGAAAAGAAAAGCCUUUUAAAACCGGGAGAGGCAGAAUUUCCACUCCUGAAAGAAAA	0.408
GCUGAAAAUGAAGAAGAGGCAGCUGAUGUCUGGUACAACCUGGGGCACAUAGCUGUGGGAAUCGGAGAUACAAAUUUGGCCCACCAAUGCUUCAGGCUGGCCCUGGUCCACAACAACCAC	0.161
CACACACUCUUCUGCGGGACCCUCAUCUUGCAGGCCCGAGCCUACGUGGGACCGCACGUCCUGGCAGUGGUGACUCGCACAGGGUUCUGCACGGCAAAAGGGGGCCUGGUGAGCUCCAUC	0.103

Set 2 — technique: RNA Bind-n-Seq; molecule type: RNA; medium: in vitro; tested at: 200 nM; setting: whole 134-nt RNA, ends assumed; with: 150 mM LiCl; reference: input library; reading: higher = stronger binding; library: 7-deaza-guanosine replaces G
Target: Ras GTPase-activating protein-binding protein 1, full length (G3BP1, Homo sapiens, UniProt Q13283)
UniProt Q13283, sequence (whole entry, looked up): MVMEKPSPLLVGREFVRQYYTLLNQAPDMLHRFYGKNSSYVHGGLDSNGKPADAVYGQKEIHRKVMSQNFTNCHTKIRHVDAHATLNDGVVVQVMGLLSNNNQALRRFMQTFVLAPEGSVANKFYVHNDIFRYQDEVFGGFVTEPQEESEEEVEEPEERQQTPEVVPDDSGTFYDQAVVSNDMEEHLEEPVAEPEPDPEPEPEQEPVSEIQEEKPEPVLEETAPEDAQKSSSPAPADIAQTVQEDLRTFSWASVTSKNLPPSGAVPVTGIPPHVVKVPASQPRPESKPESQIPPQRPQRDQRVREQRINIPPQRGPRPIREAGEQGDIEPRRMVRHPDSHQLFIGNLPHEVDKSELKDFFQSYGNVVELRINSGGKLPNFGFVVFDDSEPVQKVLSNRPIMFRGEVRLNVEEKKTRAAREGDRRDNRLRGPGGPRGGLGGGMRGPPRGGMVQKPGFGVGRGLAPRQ
Constant ends, left off below: GGGAGUUCUACAGUCCGACGAUC … UGGAAUUCUCGGGUGUCAAGG
Oligonucleotide	log2 enrichment
ACCAUGCAGGUGGGCAUCUUUGGGAAGUGGGGCAAGGGGGGGAAAAGGAGGGGGGUAACACUUUGGGAACAGGUGGUCCCAGGUCGUUUC	0.268
CAAGUCCUGUGCUACACAUCGUAUGUACCGAAUCGGGCCCGGCCCGGGGCCCGGGGAAAGUAUUAUGUUACGCCGUUCGGAUCUGCACUU	-1.93
GUCCUGUGCUACACAUCGUAUGUACCGAAUCGGCCCCCCGGCCCCCCGGCCCCCCGGGGAAAGUAUUAUGUUACGCCGUUCGGAUCUGCA	-0.345
UUUCAAAGCCAAAGGGCCUUGUGACGCCCCUCUUGCCCACCUCCCUCCACACCGUGUCCUCCCCUAUAUGACAAUCAAUGUGACCUCUCU	-0.226
AGUCCUGUGCUACACAUCGUAUGUACCGAAUCAAACCCCCAAAUUUAAACCCCCAAAAAAGUAUUAUGUUACGCCGUUCGGAUCUGCACU	1.44
AAGUCCUGUGCUACACAUCGUAUGUACCGAAUCGGUUUUUUUGGUUUUUGGUUUGGAAAGUAUUAUGUUACGCCGUUCGGAUCUGCACUU	-1.74
UCCUGUGCUACACAUCGUAUGUACCGAAUCGGGGUGGGGUUUUUUUGGGGAAAAAGGGGAAAGUAUUAUGUUACGCCGUUCGGAUCUGCA	-0.258
CUCAAGUCCUGUGCUACACAUCGUAUGUACCGAAUCGGAAAGGAAAAAGGUGGAAAGUAUUAUGUUACGCCGUUCGGAUCUGCACUUCCA	-0.614

Set 3 — technique: protein binding microarray; molecule type: double-stranded DNA, one strand shown; medium: in vitro; tested at: not given; reference: not given; reading: higher = stronger binding
Target: Histone acetyltransferase KAT6A, winged helix 2, GST fusion (KAT6A, Homo sapiens, UniProt Q92794, residues 85-181)
Setting: 8-mer, flanks averaged, mean of 2 arrays, mostly near background
Target sequence (chain): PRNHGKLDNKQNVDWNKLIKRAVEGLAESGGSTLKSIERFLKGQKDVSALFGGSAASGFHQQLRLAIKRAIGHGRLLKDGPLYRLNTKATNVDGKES
Oligonucleotide	E-score
AGTCCTAG	-0.256
AGAGTTGA	0.0178
ATGCGTGG	-0.0811
CAGAGTGA	0.0635
GATTAATA	0.044
AGTTGTTA	-0.0348
AACGATAA	-0.186
CGCAATAG	-0.14
GGTCTTAC	-0.0589
AGTGCAGC	0.191
CGCGGACC	0.163
AAGTGCTG	0.0729
ACCCCCTA	-0.297
ACTCATTA	-0.164
CTGATCAA	0.0345
GTCACGGA	0.0228
CGTCCAAA	0.0187
CGTGCCTA	-0.0894
ACGTCTCC	-0.182
ACCATAAA	0.0364
CATGCGTA	-0.0575
ATACGATA	-0.113
GAGCTAGA	-0.113
AGATAGCT	-0.0653
GTTCCTTA	0.0947

Set 4 — technique: protein-binding microarray; molecule type: double-stranded DNA, one strand shown; medium: in vitro; tested at: not given; reading: higher = stronger binding
Target: Protein C-ets-1 (ETS1, Homo sapiens, UniProt P14921, residues 1-441, K379A, full length assumed)
UniProt P14921, sequence (whole entry, unmodified, looked up): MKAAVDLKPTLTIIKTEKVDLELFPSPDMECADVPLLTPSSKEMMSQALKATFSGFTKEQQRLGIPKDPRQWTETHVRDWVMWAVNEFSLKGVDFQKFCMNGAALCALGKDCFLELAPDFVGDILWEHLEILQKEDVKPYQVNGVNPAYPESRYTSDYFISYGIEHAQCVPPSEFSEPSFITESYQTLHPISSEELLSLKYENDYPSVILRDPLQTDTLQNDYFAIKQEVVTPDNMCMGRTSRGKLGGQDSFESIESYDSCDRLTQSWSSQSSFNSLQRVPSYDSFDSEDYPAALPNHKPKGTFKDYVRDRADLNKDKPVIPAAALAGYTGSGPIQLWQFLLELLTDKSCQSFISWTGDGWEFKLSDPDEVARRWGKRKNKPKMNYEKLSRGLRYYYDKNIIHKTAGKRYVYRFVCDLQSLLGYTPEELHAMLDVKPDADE
Setting: k-mer, scored over probes, only values ≥0.25
Oligonucleotide	E-score
CCCGGTCA	0.357
ACATCCGT	0.258
ATACCCCG	0.337
ACTTACAA	0.302
ATTTCCGC	0.255
TCCGACAA	0.301
CCCGCCCG	0.384
ACTCCGGA	0.321
CGTGTCGC	0.277
AAATACAC	0.262
ATCGGTAA	0.267
CCTCCCCG	0.323
ACCCCGGC	0.37
CCGGGGAA	0.388
CGGTGTCA	0.301
CCGCCCCG	0.428

Set 5 — technique: RNA Bind-n-Seq; molecule type: RNA; medium: in vitro; tested at: 365 nM; reference: no-protein control; reading: higher = stronger binding
Target: RNA binding protein fox-1 homolog 2, RRM domain, GST-SBP tag (RBFOX2, Homo sapiens, UniProt O43251-10, residues 100-194)
Setting: natural RNA segment, single round, ends assumed
Constant ends, left off below: GGGAGUUCUACAGUCCGACGAUC … UGGAAUUCUCGGGUGCCAA
Target sequence (chain): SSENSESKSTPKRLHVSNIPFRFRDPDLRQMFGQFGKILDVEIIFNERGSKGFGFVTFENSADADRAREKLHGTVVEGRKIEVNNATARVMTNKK
Oligonucleotide	RBNS enrichment (R)
AGUCCACAGCCUCAGGACAAAUGUCGUUGAGGUUACAGAGUAAGAAAUGAUGGCAAAACGUCAAACUCUUAUUUCAGAGCUUCAUGAAUUUAGUUAGACUAAACAUAAUU	0.231
UCGUCGUCCUCCUGCCCACCCGCUGACAUUAUUUUUAUAUAGCUAAAGAGGUCAACAGCACGGGCAGGGAGCCAAGGGGCUGGGUGCUCAGACUCUUAACAAUAUCCCAA	0.412
AGACCUGGGUGUAUUUGCACUUUGGGGCCCUGUUGCUAGCCAUCUUGUGAGUGCCAAUGUAUAAUGCAGUAAAGACUACAUGGAAACACAAACUCAGUCCUUAAAACCCC	0.381
CCGACAUACAUCACAAAGGCUGCUUCAUGGCUGGGUGUGGGACCAGAUGCCAGCAAGGAUGGAAGCAUCAGGCUCACAGGUGUGUGUGUGUGUGUGCACGCGUUCGCACA	4.72
UCCUCGCAUGUAAUCAGGGAGCACGCAUGCACGUUGAGUGGGUGCAUCCUGCCUAAGCUGUGUCCCUGAGUGGUGGCUUUCCCUCCUGUCACGUGACAUCCCAUUCACUC	23.7
GGAUUGCCUUGGUUGACUUUUAAUUUAUUGUUUUUUGUUCUUAUAAAGAUGAUAAUCUUACCUUGCAGUUAUUGACUUUAUAUUCAAUUAUUUACAUCAAAUAAUGAAAU	2.11
GUAAAGCCAGCUGCUCUGGAGGCGGAGGCAGGAGGAUCUCAAAUUCAAGCCUGCUUAAGCUACUUAUAGUUCAGGGUCCGCUUAACAAUUUAUAAGACUGUGUCUUGUUC	1.97
GAACUCAUGGAUGCAGACUCGGACUUCUGGCCUGCAGAGCAGGACCUGGGACAGGAAAGAGAGGAACCAAUACCUUCAAGGCUCUUCUUCCUCACCGAGCAUGCUUCCCU	5.27

Repeated from above (set 3):
Oligonucleotide	E-score
AGTTGTTA	-0.0348
AAGTGCTG	0.0729
GGTCTTAC	-0.0589
CTGATCAA	0.0345
ACCCCCTA	-0.297
